Measured values of several laboratories.
Numbered parts are unrelated; each lists some results of a single study.

Sample 1
Target: Tyrosine-protein kinase Lyn (LYN, Homo sapiens, UniProt P07948)
Sequence of UniProt P07948 (whole entry, looked up): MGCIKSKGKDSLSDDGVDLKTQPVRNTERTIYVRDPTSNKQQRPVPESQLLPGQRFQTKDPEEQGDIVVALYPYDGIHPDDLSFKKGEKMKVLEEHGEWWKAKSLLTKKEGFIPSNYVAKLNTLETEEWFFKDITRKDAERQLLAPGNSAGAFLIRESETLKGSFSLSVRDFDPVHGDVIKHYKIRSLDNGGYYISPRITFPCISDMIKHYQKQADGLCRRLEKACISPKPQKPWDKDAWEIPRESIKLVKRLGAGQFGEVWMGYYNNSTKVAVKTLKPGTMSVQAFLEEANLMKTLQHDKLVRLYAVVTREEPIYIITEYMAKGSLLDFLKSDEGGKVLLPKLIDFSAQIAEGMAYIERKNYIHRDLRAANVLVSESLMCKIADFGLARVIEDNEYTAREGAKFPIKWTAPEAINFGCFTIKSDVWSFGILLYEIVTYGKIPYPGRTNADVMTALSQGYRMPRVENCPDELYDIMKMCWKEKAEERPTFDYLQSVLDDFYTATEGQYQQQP
Read-out: enzyme activity
Action: inhibitor
Concentration: 0.5 µM
Baseline: control
Measurement: remaining activity
Ic1cccc(CSc2nnc(-c3ccncc3)o2)c1: 103%
O=C(Nc1cccc(Nc2nccc(Nc3cccc(C(F)(F)F)c3)n2)c1)C1CC1: 91.9%
N#Cc1c(NC(=O)c2cccc3ccccc23)sc2c1CCCC2: 104%
N#C/C(=C\c1ccc(O)c(O)c1)C(=O)NCc1ccccc1: 99.8%
Cc1cc2ncc(-c3ccccc3)nc2cc1C: 98.2%
CCN(CC)C(=O)c1ccc(Nc2nc(OCC3CCCCC3)c3[nH]cnc3n2)cc1: 78.2%
c1ccc(-c2cnc(Nc3ccc(OCCN4CCCC4)cc3)s2)cc1: 65.1%
Cc1nc2cc3nc(-c4cccs4)cnc3cc2n1C: 97.8%
CCN(CC)CCNC(=O)c1c(C)[nH]c(/C=C2\C(=O)Nc3ccc(F)cc32)c1C: 23%
c1ccc(-c2[nH]ncc2-c2ccnc3ccccc23)nc1: 87.8%
Cn1nc2c3c(cccc31)C(=O)c1ccccc1-2: 96.1%
COc1cc2ncnc(Nc3ccc(O)c(Br)c3)c2cc1OC: 40.3%
CN(C)C[C@H]1CCn2c(c(C3=C(c4cn(C)c5ccccc45)C(=O)NC3=O)c3ccccc32)C1: 100%
O=C1C(Cl)=C(N2C(=O)CCC2=O)C(=O)c2ccccc21: 93.5%
COc1cc2ncnc(Nc3cccc(Cl)c3)c2cc1OC: 43.1%
O=C(NC(NC(=S)Nc1ccc(F)c([N+](=O)[O-])c1)C(Cl)(Cl)Cl)C(c1ccccc1)c1ccccc1 (stereo not drawn): 103%
Cc1cn(-c2cc(NC(=O)c3ccc(C)c(Nc4nccc(-c5cccnc5)n4)c3)cc(C(F)(F)F)c2)cn1: 52.9%
Nc1cccc(-c2cc3c(Oc4cccc(O)c4)ncnc3[nH]2)c1: 11.1%
COc1cc2c(cc1OC)-c1[nH]nc(Nc3cccc(F)c3)c1C2: 60.2%
C[C@@H]1CCN(C(=O)CC#N)C[C@@H]1N(C)c1ncnc2[nH]ccc12: 96.3%
CCOc1nc(NC(=O)Cc2cc(OC)ccc2OC)cc(N)c1C#N: 98.5%

Sample 2
Cell line: A-375
Concentration: 100 µM
Time: 18 h
Measurement: viability
CCCCN1CCCCC1C(=O)Nc1c(C)cccc1C (stereo not drawn): 90.9%
CC(C)n1c(/C=C/[C@H](O)C[C@H](O)CC(=O)O)c(-c2ccc(F)cc2)c2ccccc21 (racemic): 103%
NC(=O)c1cn(Cc2c(F)cccc2F)nn1: 96%
CO[C@H]1C[C@H](O[C@H]2[C@H](C)O[C@@H](O[C@@H]3/C(C)=C/C[C@@H]4C[C@@H](C[C@]5(C=C[C@H](C)[C@@H](C6CCCCC6)O5)O4)OC(=O)[C@@H]4C=C(C)[C@@H](O)[C@H]5OC/C(=C\C=C\[C@@H]3C)[C@]54O)C[C@@H]2OC)O[C@@H](C)[C@@H]1O: 40.7%
O=C(O[C@H]1C[N+]2(CCCOc3ccccc3)CCC1CC2)C(O)(c1cccs1)c1cccs1: 99.2%
Cc1[nH]c2ccccc2c1CCNCc1ccc(/C=C/C(=O)NO)cc1: 39%
CO[C@H]1C[C@@H]2CC[C@@H](C)[C@@](O)(O2)C(=O)C(=O)N2CCCC[C@H]2C(=O)O[C@H]([C@H](C)C[C@@H]2CC[C@@H](OCCO)[C@H](OC)C2)CC(=O)[C@H](C)/C=C(\C)[C@@H](O)[C@@H](OC)C(=O)[C@H](C)C[C@H](C)/C=C/C=C/C=C/1C: 24.8%
Nc1ccn([C@@H]2O[C@H](CO)[C@@H](O)[C@@H]2O)c(=O)n1: 77.8%
CO[C@H]1/C=C/O[C@@]2(C)Oc3c(C)c(O)c4c(O)c(c(/C=N/N5CCN(C)CC5)c(O)c4c3C2=O)NC(=O)/C(C)=C\C=C\[C@H](C)[C@H](O)[C@@H](C)[C@@H](O)[C@@H](C)[C@H](OC(C)=O)[C@@H]1C: 101%
CCOc1ccc2nc(SCCN3CCOCC3)[nH]c2c1: 110%
CCC(=O)O[C@]1(C(=O)CCl)[C@@H](C)C[C@H]2[C@@H]3CCC4=CC(=O)C=C[C@]4(C)[C@@]3(F)[C@@H](O)C[C@@]21C: 67.6%
COc1ccc(-c2ccc3cc(C(=O)O)ccc3c2)cc1[C@]12C[C@H]3C[C@H](C[C@H](C3)C1)C2: 12.5%
O=C(O)Cc1cc(I)c(Oc2ccc(O)c(I)c2)c(I)c1: 64.6%

Sample 3
Target: 5-hydroxytryptamine receptor 2B (HTR2B, Homo sapiens, UniProt P41595)
Sequence of UniProt P41595 (whole entry, looked up): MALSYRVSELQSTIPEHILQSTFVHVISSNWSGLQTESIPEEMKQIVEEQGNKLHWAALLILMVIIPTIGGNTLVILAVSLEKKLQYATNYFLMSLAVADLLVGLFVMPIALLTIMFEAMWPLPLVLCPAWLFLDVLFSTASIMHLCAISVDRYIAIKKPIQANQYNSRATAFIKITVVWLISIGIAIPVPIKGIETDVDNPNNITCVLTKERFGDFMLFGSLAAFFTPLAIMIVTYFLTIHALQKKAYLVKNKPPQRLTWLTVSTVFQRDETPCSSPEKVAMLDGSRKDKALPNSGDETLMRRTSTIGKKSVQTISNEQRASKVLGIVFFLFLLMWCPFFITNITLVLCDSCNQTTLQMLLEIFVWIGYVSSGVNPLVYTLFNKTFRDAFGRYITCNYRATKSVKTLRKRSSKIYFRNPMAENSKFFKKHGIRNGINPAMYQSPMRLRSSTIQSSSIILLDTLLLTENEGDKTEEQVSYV
Read-out: ligand displacement
Concentration: 10 µM
Measurement: inhibition
c1ccc(C2CCN(c3cnc4c(N5CCOCC5)nccn34)CC2)cc1: 17.7%
C[C@@H]1CN(c2cc(-c3n[nH]c4ccc(OC5(C)CC5)cc34)ncn2)C[C@H](C)O1: 41.4%
C[C@H](c1ccnc(Nc2nc3ccc(-c4cc(N(C)C)ncn4)cc3[nH]2)c1)N1CCN(C(=O)CC(F)(F)F)CC1: 60%
CN(C)C(=O)Cn1cc(-c2nc([C@@](C)(c3ccc(-c4cnc(N)nc4)cc3)C3CC3)no2)cn1: -5.4%
CCC(=NO)C(C)=Cc1ccc(F)c(C)c1: 43.8%
Cc1cc2c(-c3ccco3)cnc(N[C@H]3CCN(C)C[C@@H]3C(=O)NC3CCCCC3)c2[nH]c1=O: 24.3%
CS(=O)(=O)N1CCCC(NC(=O)[C@H](CCC2CCCCC2)NC(=O)c2ccc(CNC(=O)c3cnc4ccccn34)cc2)C1 (stereo partly drawn): 12.2%
CS(=O)(=O)NCC[C@H](NC(=O)c1cncc2c1cnn2-c1ccc(F)cc1)c1ccnc(S(C)(=O)=O)c1: -5.9%
CN1CCN(c2ccnc(NCCc3ccccc3)n2)CC1: 91.7%
Cc1cc(Nc2nccc(C)n2)cc(-c2cnc([C@@]3(O)CC[C@H](C(=O)O)C(C)(C)C3)s2)c1: 6.38%
CC1=C(C#N)C(c2ccc3c(c2)c(NC(=O)c2ccccc2C)nn3C)C(C#N)=C(C)N1: 11.4%
CC(=O)Nc1nc(CN2CCC[C@H](Cc3cc(C)nc(C)c3)C2)cs1: 17.9%
COc1cccc(NC(=O)c2nc3scc(CN(C)Cc4ccccc4)c3c(=O)[nH]2)c1: 51%
NC(=O)c1ccc2nc(-c3ccc(C4(N)CCC4)cc3)c(-c3ccccc3)n2n1: 13.4%
Cc1noc([C@H]2C[C@@H](c3ccc(C(F)(F)F)cc3)CN(C(=O)N3CCS(=O)(=O)C3)C2)n1: 16.8%
Cc1c(NC(=O)c2cc(C(N)=O)nc3cc(F)ccc23)c(C(F)(F)F)nn1Cc1ccc(C#N)cc1: 11.1%
COc1cc(-c2cn(C3CCc4c(F)cccc4N(CC(F)(F)F)C3=O)nn2)ccc1-n1cnc(C)c1 (stereo not drawn): 5.58%
CS(=O)(=O)c1cc(C2(NC(=O)c3cncc4c3cnn4-c3ccc(F)cc3)CC2)ccn1: 22.1%
COc1cc(N[C@@H]2CCCC[C@]2(O)C(F)(F)F)ccc1F: 18%
C[C@@H](NC(=O)Nc1cc2[nH]ncc2c(CO)n1)c1ccccc1: 13.1%
C[C@@H](c1cccc(C#N)c1)n1cc(Cl)cc(C(N)=O)c1=N: 3.93%
Nc1nc(NCc2ccccc2)nc(-c2ccccc2CO)n1: 81%

Sample 4
Host: mouse
Matrix: microsomes or S9
Concentration: 2 µM
Time: 0.5 h
Measurement: remaining compound
COc1cc(Nc2ncc(-c3cnn(C)c3)c(Nc3ccc4c(c3)CNCC4)n2)cc(OC)c1: 48.4%
O=C1CC(c2ccc3c(c2)OCO3)CC2=C1C(c1ccncc1)Nc1ccccc1N2 (stereo not drawn): 46.5%
Cc1nc(-c2c[nH]c(C(=O)N3CCOc4cc(F)ccc43)c2)cs1: 98.5%
COc1ccccc1NC(=O)Cn1c(=O)c2ccccc2n2nnc(-c3ccccc3)c12: 1.49%
Cc1nc2nc(CCc3ccccc3)nn2c(C)c1Cl: < 1%
O=C(NCC1COc2ccccc2O1)c1c(-c2cncnc2)cc(=O)n2c1CCCC2 (stereo not drawn): 46.6%
Cc1ccc(-c2cn3c4c(sc3n2)C(=O)C(C)(C)CC4)cc1: 33.5%
CS(=O)(=O)N1CCC(Nc2nc(Cl)ncc2F)C1 (stereo not drawn): 81.7%
Cn1c(CN2CCN(C(=O)c3ccccc3)CC2)nc2cc(NC(=O)c3ccccc3[N+](=O)[O-])ccc21: 74.7%
CN(CCN1CCCCC1)C(=O)c1c2c(nn1C)CCCC2: 0.0996%
